Results from different studies.
Lines come from different studies, so protocols differ. Numbers after ± are the reported error.
OPRD1: Delta-type opioid receptor (OPRD1, Homo sapiens, UniProt P41143)
UniProt P41143, sequence (whole entry, unmodified, looked up): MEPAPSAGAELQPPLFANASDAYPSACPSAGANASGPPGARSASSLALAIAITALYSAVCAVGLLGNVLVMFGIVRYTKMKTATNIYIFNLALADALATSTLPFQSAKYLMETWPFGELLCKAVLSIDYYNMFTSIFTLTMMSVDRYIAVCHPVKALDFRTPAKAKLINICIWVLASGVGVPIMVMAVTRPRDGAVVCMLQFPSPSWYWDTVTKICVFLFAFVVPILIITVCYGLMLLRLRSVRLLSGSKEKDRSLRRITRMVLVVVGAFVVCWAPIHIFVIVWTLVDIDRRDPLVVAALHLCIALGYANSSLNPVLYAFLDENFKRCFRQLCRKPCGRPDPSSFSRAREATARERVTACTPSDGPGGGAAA

Compound	target	assay	conditions	endpoint	value
Oc1cccc(CCN(CCc2ccccc2)CC2CCCC2)c1	OPRD1	β-arrestin recruitment, antagonist	–	IC50	3.1 µM
Cc1cc(O)cc(C)c1[C@H](O)CC(=O)N[C@@H]1CSSC[C@H](C(N)=O)NC(=O)[C@H](Cc2ccc([N+](=O)[O-])cc2)NC(=O)CNC1=O	OPRD1	cell-free assay, radioligand	–	Ki	26.3 µM
CCN(CC)C(=O)c1ccc(C(c2cccc(O)c2)N2CC(C)N(Cc3ccccc3)CC2C)cc1 (stereo not drawn)	Delta-type opioid receptor (OPRD1, Homo sapiens, UniProt P41143, Y308A)	–	–	Ki	0.00109 ± 0.0003 µM
CN1CCC23c4c5ccc(O)c4CC2C(O)C=CC3C1C5 (racemic)	OPRD1	binding, radioligand competition	–	EC50	1.51 µM
CC12CCC3C(CCC4CC(O)CCC43C)C1CCC2C#N (stereo not drawn)	OPRD1	antagonist	–	IC50	4.25 µM
O=C(Cc1ccc(Cl)c(Cl)c1)N1CCNC2COCC(N3CCCC3)C21 (stereo not drawn)	OPRD1	ligand displacement, radioligand	cell membranes	Ki	> 10 µM
C[C@@H](Cc1ccsc1)NC(=O)NC[C@H](Cc1ccc(O)cc1)N(C)C	OPRD1	cell-free assay	–	Ki	0.54 µM
Cc1cc(O)cc(C)c1C[C@H](N)C(=O)N[C@H](CCCNC(=N)N)C(=O)N[C@@H](Cc1ccccc1)C(=O)N(C)CC(=O)N(C)Cc1cc(C(F)(F)F)cc(C(F)(F)F)c1	Delta-type opioid receptor (OPRD1, Homo sapiens, UniProt P41143, G73V)	–	–	Ki	0.00546 ± 0.00069 µM
O=C(O)c1ccc(-c2nc(-c3ccccc3Cl)c3sccn23)cc1	OPRD1	binding, 8-point dose-response	–	IC50	~5 µM

Some of these lines once more:
Compound	target	assay	conditions	endpoint	value
CN1CCC23c4c5ccc(O)c4CC2C(O)C=CC3C1C5 (racemic)	OPRD1	binding, radioligand competition	–	EC50	1.51 µM
